# Measured values gathered from unrelated publications.
# Compare with care: the assays were run in different laboratories. Values joined by “and” are separate records of one study, mostly repeats; a detail may differ. ± marks the error that the study gave.
SMILES,assay,test system,conditions,how to read,endpoint,result
O=C(NCCc1cccnc1)c1ccc([C@H]2[C@@H](F)[C@@H](F)C[C@@H](F)[C@H]2F)cc1,liver microsome stability,mouse liver microsomes,1 µM,,hepatic clearance,73 mL/min/kg
O=C(Nc1nc2cccc(-c3ccc(CN4CCS(=O)(=O)CC4)cc3)n2n1)C1CC1,refers to: any adverse event,human rheumatoid arthritis patients,"oral, 75 mg once daily, 4 weeks, regardless of relatedness",,treatment-emergent adverse events,31.8%
CCCOc1ccc(NC(=O)CN2CCN(C)CC2)cc1-c1nc(CC)c(CC)c(=O)[nH]1,,healthy Chinese men,"10 mg, supine or semi-supine, together with: placebo",reference: baseline,maximal decrease in systolic BP,-9 ± 6.56 mmHg
Nc1cccc2ccc(/C=C/C(=O)c3ccc(O)cc3)cc12,,toluene,20 °C,,excitation maximum,411 nm
COc1cc(Nc2ncc(F)c(Nc3ccc4c(n3)NC(=O)C(C)(C)O4)n2)cc(OC)c1OC,,human,,,single adjusting compartment blood flow,14 L/h
CCO[C@H]1CCN(Cc2c(OC)cc(C)c3[nH]ccc23)[C@H](c2ccc(C(=O)O)cc2)C1,,"human severe hepatic impairment, plasma","oral, 200 mg single dose, geometric mean",,unbound half-life,18.4 h
Cc1ccc([C@@H]2O[C@H](CO)[C@@H](O)[C@H](O)[C@H]2O)cc1Cc1ccc(-c2ccc(F)cc2)s1,,Japanese type 2 diabetes patients,"200 mg, day 18, 24 h urine collection",reference: baseline,urinary sodium excretion change,-17.3 mEq
Cc1ccc(C(=O)N(CCCN)C(c2nc3snc(C)c3c(=O)n2Cc2ccccc2)C(C)C)cc1 (stereo not drawn),refers to: Hypokalemia,human patients,"intravenous, dose not given, CTCAE grade ≥3, all doses",,patients with adverse events,21%
Cn1ncnc1[C@H]1c2n[nH]c(=O)c3cc(F)cc(c23)N[C@@H]1c1ccc(F)cc1,,"human patients, plasma","oral, 600 µg/m2 twice daily day 1, day 5, dose level DL3, median, together with: temozolomide 20 mg/m2 daily days 2-6",,AUC(0-8h),67.2 ng·h/mL
N#Cc1ccc2c(c1)[C@H]1CCCN(C(=O)c3ccc4[nH]cnc4c3)[C@H]1C2,,"human, female","360 mg, day 15",,androstenedione level,8.2 nmol/L
C[Si](C)(C)O[Si](C)(C)O[Si](C)(C)O[Si](C)(C)O[Si](C)(C)C,IVIVE from S9,rainbow trout (Oncorhynchus mykiss),,,hepatic biotransformation rate constant,0.033 h⁻¹ and 0.026 h⁻¹ and 0.043 h⁻¹
CN1C(=O)[C@@H](NC(=O)c2nnc(Cc3ccccc3)[nH]2)COc2cccnc21,phase I multiple ascending dose,"human, male and female","oral, 50 mg, 14 days",,TEAE leading to permanent discontinuation,12.5%
NC(=O)N1c2ccccc2CC(O)c2ccccc21 (stereo not drawn),population PK modelling,"human patients, plasma","dose not given, weight-scaled, estimated exponents",,volume of distribution,40 L
O=C(c1ccc(F)cc1)C1CCN(CCn2c(=O)[nH]c3ccccc3c2=O)CC1,,mouse liver microsomes,,,hepatic clearance,65.4 mL/min/kg
O=C(O)CCCOc1ccc([18F])cc1-c1cc(-c2ccccc2C(F)(F)F)n(-c2ccccc2)n1,18F biodistribution,"male ddY mouse, whole blood","intravenous, 2.1 MBq, 30 min",,blood radioactivity,0.2 ± 0.17 SUV
Cc1cc(C)c(CNC(=O)c2cc(Cl)c3c(c2C)O[C@@](C)([C@H]2CC[C@H](N(C)C)CC2)O3)c(=O)[nH]1,refers to: Hyponatremia,human patients,"oral, 200 mg once daily, 1 day onset day 14",,patients with grade ≥3 TEAE,0%
COc1ccc2[nH]c([S+]([O-])Cc3ncc(C)c(OC)c3C)nc2c1 (stereo not drawn),,"healthy Chinese volunteers, plasma","oral, 20 mg, enteric-coated tablets, CYP2C19 normal metabolizers",,Cmax,385 ± 241 ng/mL
CC(C)(C(=O)N1CCOc2c(C#N)cncc2C1)C(F)F,refers to: general and administration site conditions,"healthy humans, both sexes","oral, 30 mg single dose",,subjects with TEAE,16.7%
CCc1cc(C(=O)NC)c2nccc(N3CCc4c(cc(Cn5ccnc5)cc4-c4cn(C)nc4C(F)(F)F)C3=O)c2c1,,Sprague Dawley rats,"oral, 100 mg/kg once daily, 7 days",,serum ALP activity,416 ± 88.7 U/L
C#C[C@]1(CO)O[C@@H](n2cnc3c(N)nc(F)nc32)C[C@@H]1O,,"human, plasma","oral, 200 mg single dose, extrapolated beyond 96 h",,AUC(0-168 h),23.5 µM·h
CO[C@@H]1[C@H](O)[C@@H](CO)O[C@H]1n1c([N+](=O)[O-])nc2c(=O)[nH]c(N)nc21,"depurination, RP-HPLC",citrate-phosphate buffer 0.5 mM,"177 min, pH 2, 37 °C",,nucleoside remaining fraction,0.884
C[C@H]1C=C(Cc2ccccc2)C(=O)O1,,clay soil,"pH 7.3, organic carbon 5.6 %",,KFoc,32 mL/g
CCCCC[C@H](O)CC[C@@H]1[C@H]2Cc3cccc(OCC(=O)O)c3C[C@H]2C[C@H]1O,LC-MS/MS,"Japanese IPAH/HPAH patients, plasma","inhaled, 54 µg, geometric mean",,half-life,0.7 h
COc1cc(Nc2ncc3c(n2)-c2ccc(Cl)cc2C(c2c(F)cccc2OC)=NC3)ccc1C(=O)O,"refers to: Hypophosphatemia, all grades","cancer patients, phase 1/2","oral, dose not given, together with: pembrolizumab",,patients with adverse event,17%
C=CC(=O)NC1CCN(c2ncc3ncnc(Nc4ccc(Oc5ccc6c(c5)ncn6C)c(C)c4)c3n2)CC1,refers to: total radioactivity,"healthy male human, whole blood and plasma","oral, 60 mg, 24 h, geometric mean",,blood-to-plasma ratio,1.03
CCOc1c([C@H](C)n2nc(C)c3c(N)ncnc32)cc(Cl)c(F)c1[C@@H]1CNC(=O)C1,refers to: QTcF ≤450 ms,previously treated B-cell malignancy,"oral, 15 mg once daily, baseline QTcF ≤450 ms",,ECG observations,100%
C=CCN1CC(=O)N2[C@@H](Cc3ccc(O)cc3F)C(=O)N(Cc3cccc(N4CC(N5CCN(CC)CC5)C4)n3)C[C@@H]2N1C(=O)NCc1ccccc1,,advanced solid tumour patients,"oral, 20 mg twice daily, grade ≥3, dose-escalation",,treatment-related decreased appetite,0%
Cl.[2H]C([2H])([2H])CC(=O)c1cnc(NC(=O)C2CC2)cc1Nc1cccc(-c2ncn(C([2H])([2H])[2H])n2)c1OC,geometric mean,human,"oral, 100 mg single dose, fasted, liquid",,AUC(0-inf),11300 ng·h/mL
CC(C)C[C@@H]1NC(=O)[C@H](CCCCN)NC(=O)[C@H](CC(N)=O)NC(=O)[C@H](CCCNC(=N)N)NC(=O)[C@H]([C@@H](C)O)NC(=O)[C@@H]2CSSC[C@@H]3NC(=O)[C@H]([C@@H](C)O)NC(=O)CNC(=O)CNC(=O)[C@H](C(C)C)NC(=O)[C@@H]4CSSC[C@H](NC(=O)[C@H](CCCCN)NC(=O)[C@H](CSSC[C@H](NC(=O)[C@H](C(C)C)NC(=O)[C@@H]5CCCN5C1=O)C(=O)NCC(=O)N[C@@H](CCC(=O)O)C(=O)N[C@@H]([C@@H](C)O)C(=O)N4)NC(=O)CNC(=O)[C@@H]1CCCN1C(=O)[C@H]([C@@H](C)O)NC(=O)[C@H](CC(N)=O)NC3=O)C(=O)N[C@@H](CO)C(=O)N[C@@H](Cc1c[nH]c3ccccc13)C(=O)N1CCC[C@H]1C(=O)N[C@@H](C(C)C)C(=O)N2,HPLC,water,"180 µM, 14 days, 37 °C, deamidation stability",,remaining peptide,98.3 ± 0.5%
COc1ncc(-c2nc3c(n2C(C)C)[C@H](c2ccc(Cl)cc2)N(c2cc(Cl)cn(C)c2=O)C3=O)c(OC)n1,LC-MS/MS,"human, plasma","oral, 1 mg, cycle 1 day 8, low-dose arm",,Cmax,15.5 ng/mL
O=C(O)CCC(=O)O.[2H]C([2H])([2H])Oc1cc(C)c2[nH]ccc2c1CN1CC[C@@H](C2CC2)C[C@H]1c1ccc(C(=O)O)cc1,multiple ascending dose,healthy Chinese subjects,100 mg twice daily,,subjects with any TEAE,62.5%
NC1(C(=O)N[C@@H](CCO)c2ccc(Cl)cc2)CCN(c2nc[nH]c3nccc2-3)CC1,,metastatic CRPC patients,"480 mg b.i.d., any grade, treatment-related, together with: enzalutamide 160 mg daily",,incidence of weight decreased,20%
CN1CCC(c2ccc(-c3ccc(C4CCCCC4)cc3)cn2)CC1,liver microsome stability,cynomolgus liver microsomes,1 µM,,hepatic clearance,32 mL/min/kg
Cc1cc(-c2nccc3c2ccn3CC(=O)Nc2ccc(-c3cnccn3)cn2)ccn1,,human,"20 mg once daily, multiple ascending dose",,subjects with contact dermatitis,0%
CN(C)C(=O)c1cc2cnc(Nc3ccc(N4CCNCC4)cn3)nc2n1C1CCCC1,,"human, expansion cohort, plasma","oral, 800 mg, day 14, together with: gemcitabine 1000 mg/m^2",,AUC(0-8h),20700 ng·h/mL
C=CC(=O)NC1CCN(c2ncc3ncnc(Nc4ccc(Oc5ccc6c(c5)ncn6C)c(C)c4)c3n2)CC1,refers to: total adverse events,human male,"oral, dose not given, CTCAE on-treatment AEs",,adverse events incidence,19%
O=C(CC1CCOCC1)Nc1ccc(C2CCCCC2)cc1,,mouse liver microsomes,1 µM,,hepatic clearance,86 mL/min/kg
CCCCCNC(=O)N1CCC(CN(Cc2ccc(Cl)cc2)Cc2ccc([N+](=O)[O-])s2)C1 (stereo not drawn),refers to: MO%,"C57BL/6 mouse, blood","100 mg/kg twice daily, 7 days",,blood cell fraction,4.9 ± 0.7%
CC(C(=O)NCC(=O)NCC(CNC(=O)CNC(=O)C(C)N1CCN(CC(=O)[O-])CCN(CC(=O)[O-])CCN(CC(=O)[O-])CC1)(CNC(=O)CNC(=O)C(C)N1CCN(CC(=O)[O-])CCN(CC(=O)[O-])CCN(CC(=O)[O-])CC1)CNC(=O)CNC(=O)C(C)N1CCN(CC(=O)[O-])CCN(CC(=O)[O-])CCN(CC(=O)[O-])CC1)N1CCN(CC(=O)[O-])CCN(CC(=O)[O-])CCN(CC(=O)[O-])CC1.[Gd+3].[Gd+3].[Gd+3].[Gd+3] (stereo not drawn),ICP-MS,"rat, femur epiphysis","intravenous, 0.6 mmol Gd/kg, 1 week",,Gd concentration,1.2 nmol/g
CNCc1ccc(-c2[nH]c3cc(F)cc4c3c2CCNC4=O)cc1,,human patients,"oral, 240 mg twice daily, all grades",,pulmonary embolism incidence,0%
CCn1c(C(=O)N(C2CC2)C2CC2)cc2c3c(ncn3C)c(Nc3cc(C)n(C)n3)nc21,,cancer patients,"oral, 200 mg twice daily, day 15, 339.0 h",,plasma concentration,6640 ng/mL
C=CC(=O)Nc1cc(Nc2nccc(-c3cn(C4CC4)c4ccccc34)n2)c(OC)cc1N(C)CCN(C)C,freeze-thaw stability,rat plasma,"160 ng/mL, three freeze-thaw cycles",reference: nominal concentration,relative error,-0.9%
O=C(O)[C@H]1O[C@@H](Oc2ccccc2)[C@H](O)[C@@H](O)[C@@H]1O,ultrafiltration,normal rat serum,37 °C,,serum protein binding,35 ± 16%
O=C(/C=C/CCc1ccc(O)cc1)/C=C/c1ccc(O)cc1,,nude mouse MCF7 xenograft,"20 mg/kg, day 9",,body weight,20.6 ± 1.07 g
CCN1/C(=C/C(C)=O)Sc2ccc(F)cc21,,cynomolgus monkey,"oral, 100 mg/kg, 0.5 h post-dose",,QTc interval (Bazett),333 ± 12 ms

# For quick reference, copied from above:
SMILES,assay,test system,conditions,how to read,endpoint,result
CN1C(=O)[C@@H](NC(=O)c2nnc(Cc3ccccc3)[nH]2)COc2cccnc21,phase I multiple ascending dose,"human, male and female","oral, 50 mg, 14 days",,TEAE leading to permanent discontinuation,12.5%
NC(=O)N1c2ccccc2CC(O)c2ccccc21 (stereo not drawn),population PK modelling,"human patients, plasma","dose not given, weight-scaled, estimated exponents",,volume of distribution,40 L
O=C(c1ccc(F)cc1)C1CCN(CCn2c(=O)[nH]c3ccccc3c2=O)CC1,,mouse liver microsomes,,,hepatic clearance,65.4 mL/min/kg
O=C(O)CCCOc1ccc([18F])cc1-c1cc(-c2ccccc2C(F)(F)F)n(-c2ccccc2)n1,18F biodistribution,"male ddY mouse, whole blood","intravenous, 2.1 MBq, 30 min",,blood radioactivity,0.2 ± 0.17 SUV
Cc1cc(C)c(CNC(=O)c2cc(Cl)c3c(c2C)O[C@@](C)([C@H]2CC[C@H](N(C)C)CC2)O3)c(=O)[nH]1,refers to: Hyponatremia,human patients,"oral, 200 mg once daily, 1 day onset day 14",,patients with grade ≥3 TEAE,0%
COc1ccc2[nH]c([S+]([O-])Cc3ncc(C)c(OC)c3C)nc2c1 (stereo not drawn),,"healthy Chinese volunteers, plasma","oral, 20 mg, enteric-coated tablets, CYP2C19 normal metabolizers",,Cmax,385 ± 241 ng/mL
CC(C)(C(=O)N1CCOc2c(C#N)cncc2C1)C(F)F,refers to: general and administration site conditions,"healthy humans, both sexes","oral, 30 mg single dose",,subjects with TEAE,16.7%
